Measurements from different studies.
Numbered parts are unrelated; each lists some results of a single study. Several values in a cell are separate wells, animals, samples, runs or records. Numbers after ± are the reported error.

Sample 1 — observed: ligand displacement; technique: radioligand; quantity: IC50
Target: C-X-C chemokine receptor type 4 (CXCR4, Homo sapiens, UniProt P61073)
UniProt P61073, sequence (whole entry, looked up): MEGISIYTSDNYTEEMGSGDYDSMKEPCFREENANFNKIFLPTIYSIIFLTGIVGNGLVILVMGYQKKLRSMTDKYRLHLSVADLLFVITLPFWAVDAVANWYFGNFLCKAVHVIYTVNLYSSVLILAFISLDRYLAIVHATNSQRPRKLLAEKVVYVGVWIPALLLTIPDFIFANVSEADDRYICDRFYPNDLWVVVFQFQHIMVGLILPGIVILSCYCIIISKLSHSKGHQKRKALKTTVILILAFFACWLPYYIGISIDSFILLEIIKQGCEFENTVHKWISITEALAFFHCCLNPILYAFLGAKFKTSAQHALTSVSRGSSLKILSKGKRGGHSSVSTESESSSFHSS
CC(C)C[C@H](NC(=O)[C@H](CO)NC(=O)[C@@H](NC(=O)[C@@H]1CCCN1C(=O)[C@@H](N)CCCCN)C(C)C)C(=O)N[C@@H](CO)C(=O)N[C@@H](Cc1ccc(O)cc1)C(=O)NCCCC[C@H](NC(=O)[C@@H]1CSSC[C@H](NC(=O)[C@H](Cc2ccc3ccccc3c2)NC(=O)[C@H](CCCNC(=N)N)NC(=O)[C@@H](N)CCCNC(=N)N)C(=O)N[C@@H](Cc2ccc(O)cc2)C(=O)N[C@@H](CCCNC(=N)N)C(=O)N[C@@H](CCCCN)C(=O)N[C@H](CCCCN)C(=O)N2CCC[C@H]2C(=O)N[C@@H](Cc2ccc(O)cc2)C(=O)N[C@@H](CCCNC(=N)N)C(=O)N[C@@H](CCCNC(=N)N)C(=O)N1)C(=O)O: 38.6 nM
CC(C)C[C@H](NC(=O)[C@H](CO)NC(=O)[C@@H](NC(=O)[C@@H]1CCCN1C(=O)[C@@H](N)CCCCN)C(C)C)C(=O)N[C@@H](CO)C(=O)N[C@@H](Cc1ccc(O)cc1)C(=O)N[C@@H](CCCNC(=N)N)C(=O)NCCCC[C@H](NC(=O)[C@@H]1CSSC[C@H](NC(=O)[C@H](Cc2ccc3ccccc3c2)NC(=O)[C@H](CCCNC(=N)N)NC(=O)[C@@H](N)CCCNC(=N)N)C(=O)N[C@@H](Cc2ccc(O)cc2)C(=O)N[C@@H](CCCNC(=N)N)C(=O)N[C@@H](CCCCN)C(=O)N[C@H](CCCCN)C(=O)N2CCC[C@H]2C(=O)N[C@@H](Cc2ccc(O)cc2)C(=O)N[C@@H](CCCNC(=N)N)C(=O)N[C@@H](CCCNC(N)=O)C(=O)N1)C(=O)O: 21.2 nM and 21.7 nM
CC(C)C[C@H](NC(=O)[C@H](CO)NC(=O)[C@@H](NC(=O)[C@@H]1CCCN1C(=O)[C@@H](N)CCCCN)C(C)C)C(=O)N[C@@H](CO)C(=O)N[C@@H](Cc1ccc(O)cc1)C(=O)N[C@@H](CCCNC(=N)N)C(=O)N[C@@H](CO)C(=O)N[C@@H](C)C(=O)NCCCC[C@H](NC(=O)[C@@H]1CSSC[C@H](NC(=O)[C@H](Cc2ccc3ccccc3c2)NC(=O)[C@H](CCCNC(=N)N)NC(=O)[C@@H](N)CCCNC(=N)N)C(=O)N[C@@H](Cc2ccc(O)cc2)C(=O)N[C@@H](CCCNC(=N)N)C(=O)N[C@@H](CCCCN)C(=O)N[C@H](CCCCN)C(=O)N2CCC[C@H]2C(=O)N[C@@H](Cc2ccc(O)cc2)C(=O)N[C@@H](CCCNC(=N)N)C(=O)N[C@@H](CCCNC(=N)N)C(=O)N1)C(=O)O: 24.9 nM
CC(C)C[C@H](NC(=O)[C@H](CO)NC(=O)[C@@H](NC(=O)[C@@H]1CCCN1C(=O)[C@@H](N)CCCCN)C(C)C)C(=O)N[C@@H](CO)C(=O)NCCCC[C@H](NC(=O)[C@@H]1CSSC[C@H](NC(=O)[C@H](Cc2ccc3ccccc3c2)NC(=O)[C@H](CCCNC(=N)N)NC(=O)[C@@H](N)CCCNC(=N)N)C(=O)N[C@@H](Cc2ccc(O)cc2)C(=O)N[C@@H](CCCNC(=N)N)C(=O)N[C@@H](CCCCN)C(=O)N[C@H](CCCCN)C(=O)N2CCC[C@H]2C(=O)N[C@@H](Cc2ccc(O)cc2)C(=O)N[C@@H](CCCNC(=N)N)C(=O)N[C@@H](CCCNC(N)=O)C(=O)N1)C(=O)O: 62 nM

Single results of other studies
aminopeptidase N2 N1303Q/N840Q: aminopeptidase N2 (Toxoplasma gondii, UniProt S8G5K8, N1303Q/N840Q)
O=C(O)COc1ccc(Br)cc1/C=N/NC(=O)c1ccc(Cl)cc1
survival (male mice, pilocarpine-induced seizures; oral, 20 mg/kg, 24 h, dosed 30 min before pilocarpine, with: pilocarpine 300 mg/kg i.p.): 90%

CC(C)(C)C(=O)NC(C(=O)NO)c1ccc(-c2cc(F)c(F)c(F)c2)cc1 (stereo not shown)
Ki (aminopeptidase N2 N1303Q/N840Q): 44.9 µM

O=C(O)COc1ccc(Br)cc1C=NNC(=O)Cc1ccccc1 (mixture of isomers)
serum enzyme activity (measured: AST; mouse, serum; oral, 100 mg/kg, 48 h, safety assessment): 36.4 ± 2.57 IU/L

CC(C)(C)C(=O)NC(C(=O)NO)c1ccc(-c2ccsc2)cc1 (stereo not shown)
Ki (aminopeptidase N2 N1303Q/N840Q): 2.4 µM

CC[C@H](C)[C@H](NC(=O)[C@H](CC(C)C)NC(=O)[C@H](CCCNC(=N)N)NC(=O)CCNC(=O)CCNC(=O)[C@@H]1CSSC[C@H](NC(=O)[C@H](Cc2ccc(O)cc2)NC(=O)[C@@H]2CCCN2C(=O)CCN)C(=O)N[C@@H](C(C)C)C(=O)N[C@@H](Cc2ccc(O)cc2)C(=O)N[C@@H](CCCNC(=N)N)C(=O)NCCC(=O)N[C@@H](CO)C(=O)N[C@@H](Cc2c[nH]c3ccccc23)C(=O)N[C@@H](CO)C(=O)N1)C(=O)N[C@@H](CCC(=O)O)C(=O)N[C@@H](CC(=O)O)C(=O)N[C@H](C(=O)N[C@H]1CSSC[C@@H](C(=O)N[C@@H](CC(C)C)C(=O)N[C@@H](Cc2c[nH]c3ccccc23)C(=O)N[C@@H](CCC(=O)O)C(=O)N[C@@H](CC(=O)O)C(=O)N[C@@H](CC(=O)O)C(N)=O)NC(=O)CNC(=O)[C@H](Cc2c[nH]c3ccccc23)NC(=O)[C@H](CCCNC(=N)N)NC(=O)[C@@H]2CCCN2C(=O)[C@H](CC(C)C)NC1=O)[C@@H](C)CC
potency loss with BSA (EphA4; ephrin-A5 binding, inhibitor; with: BSA 20 mg/mL; reference: without BSA): ~8 fold

Cc1ccc(C(=O)N/N=C/c2cc(Br)ccc2OCC(=O)O)cc1
survival (male mice, pilocarpine-induced seizures; oral, 20 mg/kg, 24 h, dosed 30 min before pilocarpine, with: pilocarpine 300 mg/kg i.p.): 70%

Some of these lines once more (single results of other studies):
CC[C@H](C)[C@H](NC(=O)[C@H](CC(C)C)NC(=O)[C@H](CCCNC(=N)N)NC(=O)CCNC(=O)CCNC(=O)[C@@H]1CSSC[C@H](NC(=O)[C@H](Cc2ccc(O)cc2)NC(=O)[C@@H]2CCCN2C(=O)CCN)C(=O)N[C@@H](C(C)C)C(=O)N[C@@H](Cc2ccc(O)cc2)C(=O)N[C@@H](CCCNC(=N)N)C(=O)NCCC(=O)N[C@@H](CO)C(=O)N[C@@H](Cc2c[nH]c3ccccc23)C(=O)N[C@@H](CO)C(=O)N1)C(=O)N[C@@H](CCC(=O)O)C(=O)N[C@@H](CC(=O)O)C(=O)N[C@H](C(=O)N[C@H]1CSSC[C@@H](C(=O)N[C@@H](CC(C)C)C(=O)N[C@@H](Cc2c[nH]c3ccccc23)C(=O)N[C@@H](CCC(=O)O)C(=O)N[C@@H](CC(=O)O)C(=O)N[C@@H](CC(=O)O)C(N)=O)NC(=O)CNC(=O)[C@H](Cc2c[nH]c3ccccc23)NC(=O)[C@H](CCCNC(=N)N)NC(=O)[C@@H]2CCCN2C(=O)[C@H](CC(C)C)NC1=O)[C@@H](C)CC
potency loss with BSA (EphA4; ephrin-A5 binding, inhibitor; with: BSA 20 mg/mL; reference: without BSA): ~8 fold
